Assay results pooled from the literature.
Parts stem from different laboratories: compare values within a part only. Changes are numbered by the printed parent chain.

Series 1 — method: protein binding microarray; form: double-stranded DNA, one strand shown; medium: in vitro; concentration: not given; baseline: not given; reading: higher = stronger binding
Target: Histone acetyltransferase KAT6A, winged helix 1, GST fusion (KAT6A, Homo sapiens, UniProt Q92794, residues 1-85)
Notes: 8-mer, flanks averaged, mean of 2 arrays, mostly near background
Target sequence (chain): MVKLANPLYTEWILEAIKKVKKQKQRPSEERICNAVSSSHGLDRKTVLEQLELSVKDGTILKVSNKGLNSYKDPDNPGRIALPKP
Sequence	E-score
AGCGTGCA	0.105
AAGGTGCA	-0.231
ATATGCCC	-0.153
CAACTAGA	-0.122
ATCTAGAG	-0.156
ACGACTAA	-0.0539
CTTTTCAA	-0.153
CGTTGCAG	0.0155
CCTCGCCA	-0.0224
AAGTATCA	-0.206
ATCCTTAG	-0.121
AGTCCAAT	-0.138
ACGTACGG	0.313
CTTCCCAC	0.0364
AAGGAAGG	-0.15
ATGGAGCA	-0.09
ATCATGCG	0.115
GCCTACAA	-0.135
GGACCCAC	-0.0565
AGCAACGC	0.083
CCCCGTTA	0.163
TAACAGCA	-0.0225
CATAGGAG	-0.171
GTCCGACA	0.138
CGCTTCCC	0.391

Series 2 — method: DHFR PCA, deep sequencing; medium: yeast; with: (+)-ABA 0.11 µM; baseline: wild-type fitted maximum; reading: higher = stronger binding
Target: ABI1, truncated, D143A, DHFR fusion (Arabidopsis thaliana)
Notes: methotrexate growth selection, single substitutions
Starting sequence: PYL1, truncated, DHFR fusion (Arabidopsis thaliana); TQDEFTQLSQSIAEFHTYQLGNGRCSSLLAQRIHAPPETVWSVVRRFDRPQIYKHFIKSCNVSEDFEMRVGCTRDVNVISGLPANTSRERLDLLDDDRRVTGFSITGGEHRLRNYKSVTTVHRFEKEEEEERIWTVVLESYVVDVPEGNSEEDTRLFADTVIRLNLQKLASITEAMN; partner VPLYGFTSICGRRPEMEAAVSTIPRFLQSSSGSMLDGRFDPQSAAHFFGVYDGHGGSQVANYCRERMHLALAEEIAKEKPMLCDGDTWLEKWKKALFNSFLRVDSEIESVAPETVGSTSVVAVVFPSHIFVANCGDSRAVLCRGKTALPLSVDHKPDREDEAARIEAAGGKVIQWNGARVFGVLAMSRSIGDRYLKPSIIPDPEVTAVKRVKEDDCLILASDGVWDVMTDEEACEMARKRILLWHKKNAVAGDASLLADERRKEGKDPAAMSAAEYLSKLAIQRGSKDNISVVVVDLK
Substitution	relative binding score [%]
E89F	2.78
E130Y	7.13
D97C	10.3
R99N	-1.13
G107R	6.79
I79W	21.9
S9F	4.45
C60S	3.45
M68R	1.65
G81W	1.92
E109M	2.36
T73W	18.8
R32P	0.451
D65C	7.6
Y53A	-5.03
S9T	37.8
C25W	1.81
G23L	0.251
S11L	6.77
R155W	-0.861
K58V	3.06
D144F	-24.1
A175H	24.6

Series 3 — method: competition protein-binding microarray; form: double-stranded DNA, one strand shown; medium: in vitro; concentration: 2 µM; with: Cbf1 competitor, 0.05 µM; reading: higher = stronger binding; constant ends, left off below: … GTCTTGATTCGCTTGACGCTGCTG
Target: Phosphate system positive regulatory protein PHO4, full length, GST-tagged (PHO4, Saccharomyces cerevisiae, UniProt P07270, residues 1-312)
Notes: whole 60-bp probe, lowest competitor level
Construct (chain): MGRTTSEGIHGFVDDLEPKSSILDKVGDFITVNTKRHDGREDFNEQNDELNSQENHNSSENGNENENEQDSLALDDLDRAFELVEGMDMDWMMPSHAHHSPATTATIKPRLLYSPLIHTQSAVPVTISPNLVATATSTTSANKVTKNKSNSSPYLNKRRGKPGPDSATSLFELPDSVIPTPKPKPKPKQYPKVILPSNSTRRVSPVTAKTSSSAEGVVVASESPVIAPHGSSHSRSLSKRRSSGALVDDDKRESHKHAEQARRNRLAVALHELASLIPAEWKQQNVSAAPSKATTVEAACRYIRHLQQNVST
Sequence	fluorescence intensity [a.u.]
CATACCCAACCTTGTCACATAACTTAAGATATTTGT	4140
GACCTCGTTATGGACAACGTGGTCGCTAGGGGTGGT	13100
AAAGCGGTAATTTGACAAGTGGGTGCAGATATCTAT	3810
CATACCCAACCTTGTTACGTGGGTGAAGATATTTGT	6250
GTCTTGTCTCATTGGCACGTGTTTTTCCCCACTTCA	14400
AAAGCGGTAATTTGCCCAGTGGGTGCAGATATCTAT	4230
CTTCTGTAAATTTTCCACGTGTTTTGACGCGCCCCG	14700
ACAAATGGTAACTGGCACGTTAATTGGTTTAACATT	8710
GATCCCAGGGAGCGCCTCGTGCCCCAGTGACACACT	12200
GCCATTCTCCATTCACACGTCAATCAGTCGTATTGG	4740
TGCGCAACAACTTTCCACGTGTTTTTATGTCTAGAA	16600
GAAAGAGCGAAAATACTCGTGATGGAAACTCTTTTA	6550
AAAGCGGTAATTTGAGCAGTGGGTGCAGATATCTAT	4640
AATGTGGGAATGTCGCACACGCTAATGTGGAATTGG	8790
TCTCTTTTGCATCGAAACGTGGGTAGATCGTACCGG	13900
AAAGCGGTAATTTGAGCTGTGGGTGCAGATATCTAT	4100
GTCTTGTCTCATTGGCAAGTGGGTGTCCCCACTTCA	4920
GGCATATTCTCTTGTAGTGTGACGGAAGGTGCGGGT	4920
AAATTACTAAGTTAGCACGTGTTTTACCCCGTATGA	18800
GACCAGCACCGCCGTCACAATGAGTAATGATACCAT	4200
CGTCCTAGTGATTTTCACGTGCGATCCATGAGGAAG	14800

Series 4 — method: universal PBM; form: double-stranded DNA, one strand shown; medium: in vitro; concentration: not given; reading: higher = stronger binding
Target: Sal-like protein 4, full length isoform B (SALL4, Homo sapiens, UniProt Q9UJQ4-2, residues 1-616)
Notes: 8-mer, flanks averaged, mean of replicates
Sequence	E-score
CTCCCTAC	0.00374
CTTTGCCA	-0.0347
ACGGTTGC	-0.202
CCGACGAG	-0.192
CGGTAGGC	-0.238
CTGAACAA	0.0696
ACGATACT	0.0805
AGCGTAGA	-0.161
TCCATAGA	0.089
CATACTTA	0.237
TGTTAACA	0.256
CGTCGGTC	-0.212
ATACTACC	0.149
AGGCCTTA	-0.114
CTCCTCGC	-0.191
GCGATGTA	0.0442
ACGGTCTG	-0.211
ATCTAGTA	0.234
CGATGTTC	-0.274
GCAGGAGC	-0.163
CTAGAACC	-0.215
TCGTACGA	0.0242
GGAGTGCC	-0.32
GCACACCC	-0.277
AGTATGTC	0.086

Series 5 — method: RNA Bind-n-Seq; form: RNA; medium: in vitro; concentration: 365 nM; baseline: no-protein control; reading: higher = stronger binding
Target: RNA binding protein fox-1 homolog 2, RRM domain, GST-SBP tag (RBFOX2, Homo sapiens, UniProt O43251-10, residues 100-194)
Notes: natural RNA segment, single round, ends assumed
Constant ends, left off below: GGGAGUUCUACAGUCCGACGAUC … UGGAAUUCUCGGGUGCCAA
Residues (chain): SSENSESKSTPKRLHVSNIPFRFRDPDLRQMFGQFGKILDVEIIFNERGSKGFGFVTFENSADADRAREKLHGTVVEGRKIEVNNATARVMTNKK
Sequence	RBNS enrichment (R)
UGCCCUGUACUGCCCUCUGACUCCACUGUCACCCGACACCCCUCCCCCAUAUUCAGCCACCUGCUGCACCAGGAAGAGGGUGUGAAAGAUUGUGCAUCUGCAUUCAACUA	0.641
UAGAGGCUCUUAAAAGUAUUGAAAGACAAUACUGCUGUUAUAUAGCAAGACAUAAACAGAUUAUAAACAUCAGAGCCAUUUGCUUCUCAGUUUACAUUUCUGAUACAUGC	0.375
UCAUCUCUGUUUCUCUCAAGGCGUGUGCUUGGGCAGCUUGAGGUGAGGUUUUUCCUUCCCUGUGAAGAAAUACCAACCUUUGGACCCAAUAACAUUCAUAACUGGUAGAG	0.336
GGAUGAGCUGCUUGAGCUGACCUGUUCAGAGACCGCCAUGUGCCCUGCCCACAUCCUUGCAUCACUGUUUGCCCUGCCUAUCUCUUUCCAAAUUGUCAACUCCCUUGCCC	2.94
GCACCCAAUAAUAAUUAAAUAAAUAAAAACAAGGAAUUCUGUUCUUUUGCUUUAUCAGGAACACCAAAAUGAAUUCAGGAGUUUGACUCCCUUAAAAUCUGGUCUGCUUA	0.653
AGAAGUAGCUACGUUCAACAGAACAUCCAAAGACUCAACAGCAACAAAAUGGAGAGCAUACUUACAGACUCCUGUGCGAUAGCUACUUUUAAAUACAUUUCAAUAAUUUU	0.465
GAGGUGCACUCAAGUGUGGGACUGAGCUUGGCUUCUGGCUCAGUUUCCAUUUUUUGGUCUGAAACUUCAUGUAUUUGAAUAUAGUUAAAUUUUAUUAUUUUUUUCUUACA	0.429
CCCACAGCUGCCGCGGUGGCCCCUAGCCUGAGGGGCCUGGAGUCGUGGCCCUGCAUUUCUGGGUAGGGCUGGCAAUGGUUGCCUUAACCCUGGCUCCUGGCCCGAGCCUG	0.61
GAGCCCCAAUUCUGCUUUCCCACAAAAUAAACCUAAUGCCAUCAGGCAAAACAUUUCUGUGUCUGUAUCUGCCCUGGUAUAUUCUCAUUCCUGGGGUCACAUCCUGCCUA	0.613
CACUGUUUCAAAAGCGUCAACUCUGUGUUCCUAGUUUCGAUGAACUCCCCAUUCAUUUUUAACACACUUCCCAGAUAAGGCAAUGUGCUGGACAGGCACACGGCAUGGCC	1.02
UGGUUUAUUGGAUGUGAUGGACGUUCUGUAAUAGAAAACCUGAAACGAUGAUUGAAUGGGAAAAAGAGACUACAAAAUUUGUCGUAGGAUGUAUACAGACUUAUUUUCUU	1.05
ACUUAAUACUAGGAGAAGACUGAAUCAUUAAUGAUGUCUCACAAAUUACUGUGUACCUAAGUGGUGUGAUGUAAAUACUGGAAACAAAAACAGCAGUUGCAUUGAUUUUG	0.335
